Measured values gathered from unrelated publications.
Each line is one published result; not all experiments were run side by side.
Organism: Escherichia coli

Molecule | test | system | conditions | MIC
colistin | broth microdilution | clinical isolate RKI-No_582/16 | – | ≤ 0.5 µg/mL
polymyxin B acetate | broth microdilution | ATCC 13883 | various colistin salts | 0.25 µg/mL
colistin | broth microdilution | ATCC 25922 | – | 0.5 µg/mL
colistin | – | ATCC 25922 | – | 0.25 µg/mL
gentamicin sulfate | – | ATCC 25922, susceptible | 18 h, 37 °C, dark | 0.125 µM
colistin | broth microdilution | ATCC 25922 | 18 h | 2 µM
polymyxin B | broth microdilution | ATCC 19606 | various colistin salts | 0.06 µg/mL
benzalkonium chloride | – | MC4100 | – | 32 µM
polymyxin B sulfate | broth microdilution | ATCC 13883 | various colistin salts | 0.125 µg/mL
colistin sulfate | – | DSM 30083 | – | 0.125 µM

Some of these lines once more:
Molecule | test | system | conditions | MIC
polymyxin B sulfate | broth microdilution | ATCC 13883 | various colistin salts | 0.125 µg/mL
